# Experimental data from different studies.
# By UniProt entry, the sequences of proteins in these tests, tags left out. Residues count along the entry.
# UniProt P09958, whole entry, looked up: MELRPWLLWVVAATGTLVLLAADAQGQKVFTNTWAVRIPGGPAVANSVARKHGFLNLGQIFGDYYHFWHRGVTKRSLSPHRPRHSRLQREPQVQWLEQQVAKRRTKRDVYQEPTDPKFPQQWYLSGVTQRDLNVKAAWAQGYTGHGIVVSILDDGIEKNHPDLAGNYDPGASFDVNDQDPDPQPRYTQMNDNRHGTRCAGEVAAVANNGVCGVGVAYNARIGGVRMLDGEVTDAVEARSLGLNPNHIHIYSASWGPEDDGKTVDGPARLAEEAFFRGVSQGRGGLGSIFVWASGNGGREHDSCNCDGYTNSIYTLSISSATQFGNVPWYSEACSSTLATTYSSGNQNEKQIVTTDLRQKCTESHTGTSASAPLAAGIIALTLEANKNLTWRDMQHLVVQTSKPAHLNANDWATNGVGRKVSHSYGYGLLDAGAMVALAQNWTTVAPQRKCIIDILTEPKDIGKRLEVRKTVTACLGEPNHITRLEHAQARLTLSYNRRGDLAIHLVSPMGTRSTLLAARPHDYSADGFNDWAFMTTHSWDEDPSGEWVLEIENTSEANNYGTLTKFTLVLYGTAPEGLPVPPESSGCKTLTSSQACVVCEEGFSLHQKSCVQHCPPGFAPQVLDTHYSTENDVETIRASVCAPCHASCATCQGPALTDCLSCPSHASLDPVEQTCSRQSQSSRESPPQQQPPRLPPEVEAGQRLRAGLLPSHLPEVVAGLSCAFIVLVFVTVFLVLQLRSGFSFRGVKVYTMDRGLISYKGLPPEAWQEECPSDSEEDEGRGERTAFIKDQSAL
# UniProt P18031, 1-321 limits assumed: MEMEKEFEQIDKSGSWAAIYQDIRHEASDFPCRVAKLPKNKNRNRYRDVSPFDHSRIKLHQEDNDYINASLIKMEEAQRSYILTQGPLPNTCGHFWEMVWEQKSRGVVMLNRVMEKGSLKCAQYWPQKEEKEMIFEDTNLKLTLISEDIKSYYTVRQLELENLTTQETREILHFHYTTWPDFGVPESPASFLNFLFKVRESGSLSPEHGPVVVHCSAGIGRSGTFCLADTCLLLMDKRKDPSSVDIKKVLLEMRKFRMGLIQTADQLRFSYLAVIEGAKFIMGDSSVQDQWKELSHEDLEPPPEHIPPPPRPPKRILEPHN
# UniProt P42574, whole entry, looked up: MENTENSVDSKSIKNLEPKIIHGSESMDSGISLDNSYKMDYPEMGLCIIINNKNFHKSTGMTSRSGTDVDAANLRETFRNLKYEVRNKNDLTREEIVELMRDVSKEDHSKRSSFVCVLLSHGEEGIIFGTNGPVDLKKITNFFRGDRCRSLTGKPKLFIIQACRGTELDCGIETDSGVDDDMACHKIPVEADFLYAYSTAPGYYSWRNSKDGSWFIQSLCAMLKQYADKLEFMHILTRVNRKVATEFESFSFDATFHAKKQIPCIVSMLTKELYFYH
# UniProt Q585F3, whole entry, looked up: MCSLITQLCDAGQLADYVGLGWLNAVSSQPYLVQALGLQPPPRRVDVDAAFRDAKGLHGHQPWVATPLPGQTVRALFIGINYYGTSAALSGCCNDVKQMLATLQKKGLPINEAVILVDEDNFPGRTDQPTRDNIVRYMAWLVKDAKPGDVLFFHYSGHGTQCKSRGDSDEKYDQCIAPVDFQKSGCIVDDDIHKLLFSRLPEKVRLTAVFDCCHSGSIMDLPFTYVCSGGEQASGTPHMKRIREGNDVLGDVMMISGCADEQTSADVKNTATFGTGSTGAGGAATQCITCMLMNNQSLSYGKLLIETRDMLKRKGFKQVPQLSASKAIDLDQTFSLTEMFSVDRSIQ
# UniProt P54292, whole entry: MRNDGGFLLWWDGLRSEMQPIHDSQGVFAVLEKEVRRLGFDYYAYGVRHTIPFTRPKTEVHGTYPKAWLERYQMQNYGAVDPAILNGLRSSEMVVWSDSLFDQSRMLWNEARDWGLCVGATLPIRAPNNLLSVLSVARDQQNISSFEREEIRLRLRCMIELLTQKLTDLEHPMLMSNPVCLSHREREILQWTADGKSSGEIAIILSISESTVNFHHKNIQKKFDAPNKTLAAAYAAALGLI
# UniProt Q08210, whole entry C276Y, looked up: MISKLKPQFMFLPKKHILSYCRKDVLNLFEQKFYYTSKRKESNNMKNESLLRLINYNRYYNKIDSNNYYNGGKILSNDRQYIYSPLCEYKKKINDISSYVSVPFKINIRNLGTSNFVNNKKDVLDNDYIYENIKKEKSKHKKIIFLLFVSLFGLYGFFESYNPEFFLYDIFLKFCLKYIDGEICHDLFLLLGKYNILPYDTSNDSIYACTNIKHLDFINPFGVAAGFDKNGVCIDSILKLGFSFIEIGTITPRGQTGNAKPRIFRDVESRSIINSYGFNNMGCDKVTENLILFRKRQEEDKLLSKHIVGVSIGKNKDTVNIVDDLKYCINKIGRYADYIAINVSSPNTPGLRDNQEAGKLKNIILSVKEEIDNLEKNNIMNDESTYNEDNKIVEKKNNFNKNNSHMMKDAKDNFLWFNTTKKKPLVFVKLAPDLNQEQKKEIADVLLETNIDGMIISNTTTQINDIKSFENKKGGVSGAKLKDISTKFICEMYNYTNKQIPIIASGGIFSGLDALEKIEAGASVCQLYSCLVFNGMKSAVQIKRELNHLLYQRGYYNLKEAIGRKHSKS
# UniProt Q99816, whole entry, looked up: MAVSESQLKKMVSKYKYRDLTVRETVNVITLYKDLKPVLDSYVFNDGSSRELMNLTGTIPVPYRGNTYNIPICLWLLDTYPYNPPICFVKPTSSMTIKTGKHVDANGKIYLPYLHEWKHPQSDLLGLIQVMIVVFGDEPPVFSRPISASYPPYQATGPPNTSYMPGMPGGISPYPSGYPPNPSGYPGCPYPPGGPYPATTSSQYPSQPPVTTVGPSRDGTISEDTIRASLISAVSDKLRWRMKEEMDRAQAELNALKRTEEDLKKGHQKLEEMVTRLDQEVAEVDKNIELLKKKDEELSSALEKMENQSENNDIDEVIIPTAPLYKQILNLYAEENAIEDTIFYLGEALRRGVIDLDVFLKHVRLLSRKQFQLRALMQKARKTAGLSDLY
# UniProt P12389, 28-511 limits assumed: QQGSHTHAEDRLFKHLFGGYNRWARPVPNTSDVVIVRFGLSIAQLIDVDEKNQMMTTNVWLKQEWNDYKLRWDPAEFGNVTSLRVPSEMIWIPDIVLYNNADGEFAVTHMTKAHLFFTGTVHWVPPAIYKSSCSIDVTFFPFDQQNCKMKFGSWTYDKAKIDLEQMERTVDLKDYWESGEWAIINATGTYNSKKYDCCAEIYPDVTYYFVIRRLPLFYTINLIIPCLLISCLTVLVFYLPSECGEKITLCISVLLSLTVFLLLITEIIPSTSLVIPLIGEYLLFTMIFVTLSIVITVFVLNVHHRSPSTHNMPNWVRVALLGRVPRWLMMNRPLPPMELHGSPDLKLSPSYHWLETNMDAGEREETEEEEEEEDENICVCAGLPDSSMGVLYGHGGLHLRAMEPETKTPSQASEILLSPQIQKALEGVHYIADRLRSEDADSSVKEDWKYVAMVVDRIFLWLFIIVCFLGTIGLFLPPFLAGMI
# UniProt P12390, 25-500 limits assumed: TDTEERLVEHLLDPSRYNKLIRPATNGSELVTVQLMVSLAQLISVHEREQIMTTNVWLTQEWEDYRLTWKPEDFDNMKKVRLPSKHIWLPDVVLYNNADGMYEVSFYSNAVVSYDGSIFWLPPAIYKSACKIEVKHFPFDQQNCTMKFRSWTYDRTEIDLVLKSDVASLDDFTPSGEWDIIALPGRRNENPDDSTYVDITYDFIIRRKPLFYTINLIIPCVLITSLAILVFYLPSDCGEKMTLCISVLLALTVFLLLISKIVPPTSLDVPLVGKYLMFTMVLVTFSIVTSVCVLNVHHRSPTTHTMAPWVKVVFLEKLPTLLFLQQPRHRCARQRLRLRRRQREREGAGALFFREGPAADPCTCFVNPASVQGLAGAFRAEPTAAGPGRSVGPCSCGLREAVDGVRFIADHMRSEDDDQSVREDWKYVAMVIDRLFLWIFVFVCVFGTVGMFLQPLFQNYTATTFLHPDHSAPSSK
# Lines come from different studies, so protocols differ. ± gives the spread as reported.
# HLA class I histocompatibility antigen, A alpha chain allele A*26:03: HLA class I histocompatibility antigen, A alpha chain, allele A*26:03 (Homo sapiens, UniProt P04439)
# FURIN: Furin (FURIN, Homo sapiens, UniProt P09958)
# PTPN1: Tyrosine-protein phosphatase non-receptor type 1 (PTPN1, Homo sapiens, UniProt P18031)
# CASP3: Caspase-3 (CASP3, Homo sapiens, UniProt P42574)
# MCA2: Metacaspase-2 (MCA2, Trypanosoma brucei brucei, UniProt Q585F3)
SMILES,tested on,assay,test system,setting,how to read,endpoint,value
CC[C@H](C)[C@H](NC(=O)[C@@H](N)CCC(=O)O)C(=O)N[C@@H](CC(N)=O)C(=O)N[C@@H](C)C(=O)N[C@@H](Cc1ccccc1)C(=O)N[C@H](C(=O)N[C@@H](C)C(=O)NCC(=O)N[C@@H](CCSC)C(=O)O)C(C)C,"HLA class I histocompatibility antigen, A alpha chain allele A*26:03",,,,direction not given,z-score,-2.77
C[C@@H](O)[C@H](NC(=O)c1ccccc1N)C(=O)N[C@@H](Cc1c[nH]cn1)C(=O)N[C@@H](CCCNC(=N)N)C(=O)N[C@H](C(=O)N[C@@H](CCCNC(=N)N)C(=O)N[C@@H](CCCNC(=N)N)C(=O)N[C@@H](CO)C(=O)N[C@H](C(=O)N[C@@H](CO)C(=O)N[C@@H](CC(=O)O)C(=O)N[C@@H](CCC(N)=O)C(=O)NCCNc1ccc([N+](=O)[O-])cc1[N+](=O)[O-])[C@@H](C)O)[C@@H](C)O,FURIN,substrate,,pH 7,,kcat,8.5 s⁻¹
CC(=O)N[C@@H](C)C(=O)N[C@@H](Cc1ccc(OP(=O)(O)O)cc1)C(=O)N[C@@H](Cc1ccc(O)cc1)C(=O)N[C@@H](C)C(=O)N[C@@H](CCC(=O)O)C(=O)N[C@@H](CO)C(=O)N[C@@H](Cc1ccc(OP(=O)(O)O)cc1)C(=O)N[C@@H](C)C(=O)N[C@@H](C)C(N)=O,PTPN1,"substrate, continuous UV",,pH 7.4,,kcat/Km,5.1e+06 M⁻¹ s⁻¹
CC(C)C[C@H](NC(=O)c1ccccc1N)C(=O)N[C@@H](CCCNC(=N)N)C(=O)N[C@@H](CCCNC(=N)N)C(=O)N[C@@H](CCCNC(=N)N)C(=O)N[C@@H](CCCNC(=N)N)C(=O)N[C@@H](CCCNC(=N)N)C(=O)N[C@@H](CC(=O)O)C(=O)N[C@@H](C)C(=O)NCC(=O)N[C@@H](CC(N)=O)C(=O)N[C@@H](CCC(N)=O)C(=O)NCCNc1ccc([N+](=O)[O-])cc1[N+](=O)[O-],FURIN,substrate,,pH 7,,kcat,11.1 s⁻¹
C[C@H](NC(=O)[C@H](CCC(N)=O)NC(=O)CCNC(=O)Cc1cc(=O)oc2cc(N)ccc12)C(=O)N[C@@H](CO)C(=O)N[C@H](C(=O)N[C@@H](CC(=O)O)C(=O)N[C@@H](C)C(=O)NCC(=O)N[C@H](C(=O)N[C@@H](C)C(=O)NCC(=O)N[C@@H](CCCCNc1ccc([N+](=O)[O-])cc1[N+](=O)[O-])C(N)=O)[C@@H](C)O)[C@@H](C)O,CASP3,substrate,,pH 7.2,,Km,16.2 µM
CC(=O)N[C@@H](CC(=O)O)C(=O)N[C@@H](C)C(=O)N[C@@H](C)C(=O)N[C@@H](CC(=O)O)C(=O)N[C@H](C(=O)N[C@@H](Cc1ccc(OP(=O)(O)O)cc1)C(=O)N[C@@H](C)C(=O)N[C@@H](C)C(N)=O)C(C)C,PTPN1,"substrate, continuous UV",,pH 7.4,,kcat/Km,3.1e+06 M⁻¹ s⁻¹
CC(=O)N[C@@H](C)C(=O)N[C@@H](C)C(=O)N[C@@H](Cc1ccc(OP(=O)(O)O)cc1)C(=O)N[C@@H](CC(=O)O)C(=O)N[C@@H](CC(=O)O)C(=O)N[C@@H](C)C(=O)N[C@@H](C)C(=O)N[C@@H](C)C(N)=O,PTPN1,substrate,,"pH 7.4, catalytic domain",,kcat,28 ± 1 s⁻¹
O=C(N[C@H]1CCOC1=O)C1CCCC1,"rhlR (Pseudomonas aeruginosa, UniProt P54292)","reporter gene, agonist, rhlI-lacZ reporter",Escherichia coli reporter strain,,,Emax,100%
CC(C)[C@H](NC(=O)[C@H](CCCNC(=N)N)NC(=O)[C@H](C)NC(=O)[C@H](CCCCN)NC(=O)c1ccccc1N)C(=O)N[C@@H](CO)C(=O)N[C@@H](C)C(=O)N[C@@H](CCC(N)=O)C(=O)NCCNc1ccc([N+](=O)[O-])cc1[N+](=O)[O-],MCA2,"enzyme activity, substrate, FRET hydrolysis",Trypanosoma brucei,pH 7.4,,Km,0.53 µM
CC(C)C[C@H](NC(=O)[C@H](C)NC(=O)[C@H](CCCNC(=N)N)NC(=O)[C@H](CCCNC(=N)N)NC(=O)[C@H](Cc1c[nH]cn1)NC(=O)[C@H](CCCNC(=N)N)NC(=O)[C@H](CO)NC(=O)[C@H](CO)NC(=O)c1ccccc1N)C(=O)N[C@@H](CC(=O)O)C(=O)N[C@H](C(=O)N[C@@H](CCC(N)=O)C(=O)NCCNc1ccc([N+](=O)[O-])cc1[N+](=O)[O-])[C@@H](C)O,FURIN,substrate,,pH 7,,kcat,8.4 s⁻¹
CC[C@H](C)[C@H](N)C(=O)N[C@@H](CCCNC(=N)N)C(=O)N[C@@H](CCSC)C(=O)N[C@@H](Cc1c[nH]c2ccccc12)C(=O)N[C@@H](CC(N)=O)C(=O)N[C@@H](CCC(N)=O)C(=O)N[C@@H](C)C(=O)N[C@@H](C)C(=O)N[C@@H](CC(C)C)C(=O)O,"HLA class I histocompatibility antigen, A alpha chain, allele A*80:01 (Homo sapiens, UniProt P04439)",,,,direction not given,z-score,0.38
Cc1cc(Nc2ccc(S(F)(F)(F)(F)F)cc2)n2nc(C(C)(F)F)nc2n1,"PFF0160c (Plasmodium falciparum, UniProt Q08210, C276Y)","enzyme activity, inhibitor, measured: C276Y mutant",,,baseline: mutant over wild type,IC50 fold increase,10 to 20 fold
N#Cc1c(-c2ccc(Cl)cc2Cl)n(-c2nc(-c3ccc(Cl)cc3)c3c(NC(=O)c4ccccc4)nnc-3[nH]2)[nH]c1=O,SK-MEL-2,SRB,,,,CC50,> 100 µM
C[C@@H](O)[C@H](NC(=O)[C@H](CCC(N)=O)NC(=O)[C@H](CCCNC(=N)N)NC(=O)[C@H](CCCNC(=N)N)NC(=O)[C@H](CCCNC(=N)N)NC(=O)[C@H](CCCNC(=N)N)NC(=O)[C@H](CO)NC(=O)[C@H](CCC(N)=O)NC(=O)c1ccccc1N)C(=O)N1CCC[C@H]1C(=O)N1CCC[C@H]1C(=O)N[C@@H](CCC(N)=O)C(=O)NCCNc1ccc([N+](=O)[O-])cc1[N+](=O)[O-],FURIN,substrate,,"concentration not given, added: KCl",,hydrolysis rate,decreased
CC(C)C[C@H](NC(=O)[C@H](CO)NC(=O)[C@@H](N)CCCNC(=N)N)C(=O)N[C@@H](Cc1ccc(O)cc1)C(=O)N[C@@H](CC(N)=O)C(=O)N[C@H](C(=O)N[C@H](C(=O)N[C@@H](C)C(=O)N[C@H](C(=O)N[C@@H](CC(C)C)C(=O)N[C@@H](Cc1ccc(O)cc1)C(=O)O)[C@@H](C)O)C(C)C)[C@@H](C)O,"HLA class I histocompatibility antigen, A alpha chain allele A*26:03",,,concentration not given,,activity class,inactive
CC(C)C[C@H](NC(=O)CNC(=O)[C@H](CCCNC(=N)N)NC(=O)[C@H](CCCCN)NC(=O)[C@H](CCCCN)NC(=O)[C@H](CCCNC(=N)N)NC(=O)[C@H](CCCNC(=N)N)NC(=O)[C@H](CCCNC(=N)N)NC(=O)[C@H](CCC(=O)O)NC(=O)[C@H](CCCNC(=N)N)NC(=O)c1ccccc1N)C(=O)N[C@@H](Cc1ccccc1)C(=O)NCC(=O)N[C@@H](CCC(N)=O)C(=O)NCCNc1ccc([N+](=O)[O-])cc1[N+](=O)[O-],FURIN,substrate,,pH 7,,kcat,1.9 s⁻¹
CSCC[C@H](NC(=O)[C@@H]1CCCN1C(=O)[C@@H]1CCCN1C(=O)[C@H](CCSC)NC(=O)[C@@H]1CCCN1C(=O)[C@@H]1CCCN1C(=O)[C@H](C)NC(=O)[C@H](CO)NC(=O)[C@@H]1CCCN1C(=O)[C@@H](NC(=O)[C@H](CC(C)C)NC(=O)[C@H](CO)NC(=O)CNC(=O)CNC(=O)[C@@H](N)Cc1ccc(O)cc1)C(C)C)C(=O)O,"Tumor susceptibility gene 101 protein, UEV domain (Homo sapiens, UniProt Q99816)",thermal stability,,800 µM,"baseline: free protein, higher = stabilisation",Tm shift,5.8 °C
CC(C)[C@H](NC(=O)CNC(=O)[C@H](CC(=O)O)NC(=O)[C@@H](NC(=O)[C@H](CCC(=O)O)NC(=O)[C@H](CC(=O)O)NC(=O)CCNC(=O)Cc1cc(=O)oc2cc(N)ccc12)C(C)C)C(=O)N[C@@H](CCCCNc1ccc([N+](=O)[O-])cc1[N+](=O)[O-])C(=O)N[C@@H](CC(=O)O)C(N)=O,CASP3,substrate,,pH 7.2,,Km,6.35 µM
CSCC[C@H](NC(=O)[C@@H]1CCCN1C(=O)[C@@H]1CCCN1C(=O)[C@H](CCCNC(=N)N)NC(=O)[C@@H]1CCCN1C(=O)[C@H](CCCNC(=N)N)NC(=O)[C@H](C)NC(=O)[C@@H](NC(=O)[C@@H](N)[C@@H](C)O)[C@@H](C)O)C(=O)O,"HLA class I histocompatibility antigen, A alpha chain allele A*26:03",,,,direction not given,z-score,-0.799
CC(=O)N[C@@H](C)C(=O)N[C@@H](C)C(=O)N[C@@H](Cc1ccc(OP(=O)(O)O)cc1)C(=O)N[C@@H](C)C(=O)N[C@@H](CC(=O)O)C(=O)N[C@@H](CC(=O)O)C(=O)N[C@@H](C)C(=O)N[C@@H](C)C(N)=O,PTPN1,substrate,,"pH 7.4, catalytic domain",,kcat,30 ± 1 s⁻¹
Cc1nn(-c2ccc(Cl)cc2)c2c1C(c1ccc(O)cc1)C(C#N)=C(N)O2 (stereo not drawn),Vero E6,,,6.3 µM,,viability,70.8%
CSCC[C@H](NC(=O)CNC(=O)[C@H](CC(C)C)NC(=O)[C@H](Cc1c[nH]c2ccccc12)NC(=O)[C@H](CCCCN)NC(=O)[C@H](CCC(=O)O)NC(=O)[C@@H](NC(=O)[C@@H](NC(=O)[C@H](C)N)C(C)C)C(C)C)C(=O)O,"HLA class I histocompatibility antigen, A alpha chain allele A*26:03",,,,direction not given,z-score,-2.36
CC[C@H](C)[C@H](NC(=O)[C@@H]1CCCN1C(=O)[C@H](Cc1ccccc1)NC(=O)[C@H](Cc1ccc(OP(=O)(O)O)cc1)NC(=O)[C@H](C)NC(C)=O)C(=O)N[C@@H](Cc1c[nH]c2ccccc12)C(=O)N[C@@H](Cc1ccc(OP(=O)(O)O)cc1)C(=O)N[C@@H](C)C(=O)N[C@@H](C)C(N)=O,PTPN1,"substrate, continuous UV",,pH 7.4,,kcat/Km,5.9e+06 M⁻¹ s⁻¹
CC[C@H](C)[C@@H]1NC(=O)[C@H](CCC(=O)O)NC(=O)[C@@H]2CCCN2C(=O)[C@H](Cc2c[nH]cn2)NC(=O)[C@H](CCCNC(=N)N)NC(=O)[C@H](C(C)C)NC(=O)[C@H](CC(N)=O)NC(=O)[C@@H]2CSSC[C@H](NC(=O)CN)C(=O)N[C@@H](CSSC[C@@H](C(N)=O)NC1=O)C(=O)N[C@@H](CO)C(=O)N[C@@H](Cc1c[nH]cn1)C(=O)N1CCC[C@H]1C(=O)N[C@@H](C(C)C)C(=O)N2,"Neuronal acetylcholine receptor; alpha2/beta2 (Rattus norvegicus, UniProt P12389+P12390)","ion current, antagonist, two-electrode voltage clamp",Xenopus oocytes,"rat, added: ACh 100 µM",,IC50,> 10 µM
CC[C@H](C)[C@H](NC(=O)[C@@H](NC(=O)[C@H](Cc1ccccc1)NC(=O)[C@H](CCC(=O)O)NC(=O)CNC(=O)[C@H](Cc1ccc(OP(=O)(O)O)cc1)NC(=O)[C@@H](NC(=O)[C@H](CC(=O)O)NC(=O)[C@H](C)NC(=O)[C@@H](NC(=O)[C@H](CC(=O)O)NC(C)=O)[C@@H](C)O)C(C)C)[C@@H](C)O)C(N)=O,PTPN1,"substrate, continuous UV",,pH 7.4,,kcat/Km,4.8e+06 M⁻¹ s⁻¹
CC(C)C[C@H](NC(=O)[C@@H]1CCCN1C(=O)[C@@H](NC(=O)[C@@H](NC(=O)[C@H](CC(N)=O)NC(=O)[C@@H](NC(=O)[C@@H](N)Cc1ccc(O)cc1)[C@@H](C)O)C(C)C)C(C)C)C(=O)N[C@H](C(=O)N[C@@H](Cc1ccc(O)cc1)C(=O)O)C(C)C,"HLA class I histocompatibility antigen, B alpha chain, allele B*46:01 (Homo sapiens, UniProt P01889)",,,,direction not given,z-score,-6.47
C[C@H](NC(=O)[C@H](CCCCN)NC(=O)c1ccccc1N)C(=O)N[C@@H](CCCCN)C(=O)N[C@@H](CO)C(=O)N[C@@H](CO)C(=O)N[C@@H](C)C(=O)N[C@@H](CCC(N)=O)C(=O)NCCNc1ccc([N+](=O)[O-])cc1[N+](=O)[O-],MCA2,"enzyme activity, substrate, FRET hydrolysis",Trypanosoma brucei,pH 7.4,,Km,0.49 µM

# Some of these lines once more:
SMILES,tested on,assay,test system,setting,how to read,endpoint,value
CSCC[C@H](NC(=O)CNC(=O)[C@H](CC(C)C)NC(=O)[C@H](Cc1c[nH]c2ccccc12)NC(=O)[C@H](CCCCN)NC(=O)[C@H](CCC(=O)O)NC(=O)[C@@H](NC(=O)[C@@H](NC(=O)[C@H](C)N)C(C)C)C(C)C)C(=O)O,"HLA class I histocompatibility antigen, A alpha chain allele A*26:03",,,,direction not given,z-score,-2.36
CC[C@H](C)[C@H](NC(=O)[C@@H]1CCCN1C(=O)[C@H](Cc1ccccc1)NC(=O)[C@H](Cc1ccc(OP(=O)(O)O)cc1)NC(=O)[C@H](C)NC(C)=O)C(=O)N[C@@H](Cc1c[nH]c2ccccc12)C(=O)N[C@@H](Cc1ccc(OP(=O)(O)O)cc1)C(=O)N[C@@H](C)C(=O)N[C@@H](C)C(N)=O,PTPN1,"substrate, continuous UV",,pH 7.4,,kcat/Km,5.9e+06 M⁻¹ s⁻¹
